Published values gathered from unrelated publications.
Protocols differ between the studies behind these lines. Several values in a cell are separate wells, animals, samples, runs or records. ± gives the spread as reported.
UniProt P00519, sequence (whole entry, unmodified, looked up): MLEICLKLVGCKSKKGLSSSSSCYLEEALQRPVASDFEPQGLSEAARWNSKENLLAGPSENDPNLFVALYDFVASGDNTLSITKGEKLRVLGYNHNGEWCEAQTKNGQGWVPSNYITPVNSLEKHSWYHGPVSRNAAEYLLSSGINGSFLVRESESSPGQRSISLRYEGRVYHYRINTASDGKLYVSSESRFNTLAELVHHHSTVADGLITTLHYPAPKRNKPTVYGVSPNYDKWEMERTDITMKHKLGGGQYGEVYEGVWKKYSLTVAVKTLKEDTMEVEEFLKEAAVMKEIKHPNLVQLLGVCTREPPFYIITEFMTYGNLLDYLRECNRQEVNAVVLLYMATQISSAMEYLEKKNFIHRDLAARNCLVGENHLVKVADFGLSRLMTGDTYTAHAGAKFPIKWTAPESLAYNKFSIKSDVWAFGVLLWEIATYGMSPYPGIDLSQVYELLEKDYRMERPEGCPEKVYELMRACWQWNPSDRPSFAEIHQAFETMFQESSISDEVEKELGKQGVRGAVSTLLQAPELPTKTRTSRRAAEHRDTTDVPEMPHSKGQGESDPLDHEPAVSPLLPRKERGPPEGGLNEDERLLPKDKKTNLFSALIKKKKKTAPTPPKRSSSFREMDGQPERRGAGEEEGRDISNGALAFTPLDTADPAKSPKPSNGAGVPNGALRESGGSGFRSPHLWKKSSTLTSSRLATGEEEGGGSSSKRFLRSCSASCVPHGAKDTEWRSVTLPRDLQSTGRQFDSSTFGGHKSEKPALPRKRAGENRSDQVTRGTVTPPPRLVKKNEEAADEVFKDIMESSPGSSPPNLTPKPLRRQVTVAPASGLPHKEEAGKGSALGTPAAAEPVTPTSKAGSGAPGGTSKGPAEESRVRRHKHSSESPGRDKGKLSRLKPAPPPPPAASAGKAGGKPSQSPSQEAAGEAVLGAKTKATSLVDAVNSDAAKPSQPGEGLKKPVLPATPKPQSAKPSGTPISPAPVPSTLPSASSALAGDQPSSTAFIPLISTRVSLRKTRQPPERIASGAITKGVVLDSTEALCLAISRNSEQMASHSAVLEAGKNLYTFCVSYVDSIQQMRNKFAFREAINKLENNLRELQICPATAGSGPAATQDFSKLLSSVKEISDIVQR

Structure (SMILES)	tested on	test	system	conditions	how to read	measurement	result
COc1ccc(C(=O)NC23CCCC(C)(CCC4C2CC4(C)C)C3)cc1 (stereo not shown)	HT-29	cell growth or viability, CCK-8	–	300 µM	–	inhibition	98.6%
C1=[N+]2CCCC[N+]3=Cc4ccc5[n]4[Au-]23[n]2c1ccc2-c1nc2ccccc2nc1-5.F[P-](F)(F)(F)(F)F	OVCAR-8	NCI60 five-dose screen	–	–	–	TGI	4 -log M
CC1(C)C[C@@H](Nc2cccc(-c3sc(C(=O)O)c(OCC(=O)O)c3Cl)c2)CCN1S(=O)(=O)Cc1cccc(NC(=O)CN2CCC(c3ccc4c(c3)oc(=O)n4C3CCC(=O)NC3=O)CC2)c1 (stereo partly shown)	B16-F10	HTRF, measured: phospho-STAT1 Tyr701	–	0.123 µM, together with: IFN-γ	relative to: DMSO	fold change	3.13 and 3.01 and 2.81 and 2.72 and 2.74 and 2.92
CCC(=CCc1c(O)cc2c(c1O)C(=O)CC(c1cccc(OC)c1O)O2)CC (stereo not shown)	HeLa	cell growth or viability, MTT	–	25 µM, 48 h	–	inhibition	65.3%
Cc1ncsc1-c1ccc(C(C)NC(=O)C2CC(O)CN2C(=O)C(NC(=O)CCCCCCCCCCN2CCCC(Nc3ncc(Cl)c(Nc4ccccc4S(=O)(=O)C(C)C)n3)C2)C(C)(C)C)cc1 (stereo not shown)	22Rv1	RNA-seq, measured: SLC35C1 mRNA	–	concentration not given	relative to: DMSO	log2 fold change	-1.1
CCC(=CCc1c(O)cc2c(c1O)C(=O)CC(c1cc(O)ccc1OC)O2)CC (stereo not shown)	HeLa	cell growth or viability, MTT	–	25 µM, 48 h	–	inhibition	39.6%
COc1ccc(COC[C@](O)(CNCc2ccccc2)[C@@H]2CC[C@@H](C)C[C@H]2OCc2ccc(OC)cc2)cc1	A2780	cell growth or viability, MTT	–	10 µM, 72 h	–	inhibition	100%
Cc1cc(Cl)cc(-c2ccnc3cc(CN4C(=O)C5C(C4=O)C5(C)C)sc23)c1C[C@@H]1CNCCO1 (stereo partly shown)	CHP-212 resistant cells (pooled)	annexin V-PI flow cytometry	–	1 µM, 48 h	–	apoptotic cells (early plus late)	7.11% and 13.4% and 16.4%
O=S(=O)(Nc1ccc(OC(F)(F)F)cc1)N1CCCC(C2c3ccccc3CCc3ccccc32)C1 (stereo not shown)	D341	Transwell	–	1.5 µM, 24 h	–	cell migration	decreased
CC12CCCC(NC(=O)c3ccc(F)cc3)(C1)C1CC(C)(C)C1CC2 (stereo not shown)	HT-29	cell growth or viability, CCK-8	–	10 µM	–	inhibition	< 50%
O=C(NCCO)c1ccc(C2CCCCC2)cc1	–	liver microsome stability	cynomolgus liver microsomes	1 µM	–	hepatic clearance	38 mL/min/kg
O=S(=O)(N[C@H]1CCO[C@@H](C2c3ccccc3CCc3ccccc32)C1)c1ccc(OC(F)(F)F)cc1	D425	immunoblot	–	concentration not given, 24 h	–	cleaved caspase 9 level	increased
CC(=O)N1C[C@H](O)C[C@H]1C(=O)N[C@H](C(=O)N[C@@H](CO)C(=O)N[C@@H](CC(=O)O)C(=O)COC(=O)c1c(C)cccc1C)C(C)(C)C	THP-1 cells, LPS-primed	pyroptosis, LDH release	–	25 µM, LPS 1 µg/mL, 4 h, together with: nigericin 5 µM, 2 h	–	cell lysis	79.9% and 84.9%
CN1CCCNC(=O)c2cccc(c2)C(=O)NCCCN(C)CCCNc2cccc3c2C(=O)c2cccc(c2C3=O)NCCC1	SAS	RNA-Seq, measured: TRMT11 mRNA	–	1 µM, 6 h	relative to: untreated cells	log2 fold change	-0.935
CNS(=O)(=O)Nc1nccc(Cc2c(C)c3ccc(Oc4ncccc4F)cc3oc2=O)c1F	SKM-1	cell viability	–	7 days	–	IC50	3.95 nM
O=C(NC1CCOCC1)c1ccc(C2CCCCC2)cc1	–	hepatocyte stability	cryopreserved human hepatocytes	1 µM	–	hepatic clearance	19 mL/min/kg
Cc1nn(-c2cccc(N)c2)c(=O)c2cnc(Nc3ccc(N4CCNCC4)cc3)nc12	Tyrosine-protein kinase ABL1 (ABL1, Homo sapiens, UniProt P00519, E255K)	enzyme activity, inhibitor	–	–	–	IC50	467 nM
CC(C)c1ccc(N(C)c2ccc3c(c2)OCC[C@H]3CNc2cnccc2C(=O)O)cc1	KYSE-150 overexpressing KDM4C	histone demethylation, immunoblot, measured: H3K36me3	–	24 h	–	IC50	85 nM
COC1CN([C@H]2CC[C@H]([C@@]3(C)Oc4c(Cl)cc(C(=O)NCc5c(SC)cc(C)[nH]c5=O)c(C)c4O3)CC2)C1	–	RNA-seq, measured: PHF13	human, whole blood	dose not given, 24 h	relative to: pretreatment baseline	log2 fold change	1.13
CC(=O)N[C@@H](CC(=O)O)C(=O)N[C@@H](CO)C(=O)N[C@H](C(=O)N[C@@H](CC(=O)O)C(=O)COC(=O)c1c(C)cccc1C)C(C)C	THP-1 cells, LPS-primed	pyroptosis, LDH release	–	25 µM, LPS 1 µg/mL, 4 h, together with: nigericin 5 µM, 2 h	–	cell lysis	67.4%
COc1ccccc1-c1ccncc1C(=O)Nc1nnc(OCc2ccc(Cl)cc2)s1	MDA-MB-436 BRCA1-mutant	–	–	0.375 µM	relative to: vehicle control	colony survival	57.7% and 66.7% and 61.7%
CCN(CC)CC(=O)Nc1cccc(-n2cc(-c3ccc4ccc(-c5cn(-c6cccc(NC(=O)CN(CC)CC)c6)nn5)cc4c3)nn2)c1	RCC4	PCR angiogenesis array, measured: ITGAV	–	5 x IC50, 4 h, normoxia	relative to: untreated	fold regulation	-1.32
N#C[C@@H]1CCCN1C(=O)CNC(=O)c1ccnc2ccc(OCCCN3CCN(C(=O)CCc4ccc5c(c4)CN4CCN6CC(=O)[O][68Ga-]([O]C(=O)C4)([O]5)[O]c4ccc(CCC(=O)N5CCN(CCCOc7ccc8nccc(C(=O)NCC(=O)N9CCC[C@H]9C#N)c8c7)CC5)cc4C6)CC3)cc12	HT1080 cells expressing human FAP	–	–	60 min, 37 °C	–	internalized fraction	81.6 ± 3%
Nc1ncc(-c2cc(-c3cnn(CC(F)(F)F)c3)ncc2F)nc1C(=O)NC1CNCC(F)C1 (stereo not shown)	DYRK1A	KINOMEscan	–	1 µM	relative to: DMSO control	remaining binding	92%
CC(C)C[C@H](NC(=O)[C@@H](CCCCNC(=O)[C@@H](Cc1ccccc1)NC(=O)CCCCCNC(=O)CN1CCN(CC(=O)O)CCN(CC(=O)O)CCN(CC(=O)O)CC1)NC(=O)[C@H](Cc1ccc(O)cc1)NC(=O)[C@H](CO)NC(=O)[C@H](Cc1c[nH]c2ccccc12)NC(=O)[C@H](Cc1c[nH]cn1)NC(=O)[C@@H]1CCC(=O)N1)C(=O)N[C@@H](CCCNC(=N)N)C(=O)N1CCC[C@H]1C(=O)NCC(N)=O [indium-111 labelled]	–	–	female athymic nude mice, heart	intravenous, 0.037 MBq, 2 h	–	tissue uptake	0.06 ± 0.03 %ID/g

A few entries again:
Structure (SMILES)	tested on	test	system	conditions	how to read	measurement	result
CC(C)c1ccc(N(C)c2ccc3c(c2)OCC[C@H]3CNc2cnccc2C(=O)O)cc1	KYSE-150 overexpressing KDM4C	histone demethylation, immunoblot, measured: H3K36me3	–	24 h	–	IC50	85 nM
COC1CN([C@H]2CC[C@H]([C@@]3(C)Oc4c(Cl)cc(C(=O)NCc5c(SC)cc(C)[nH]c5=O)c(C)c4O3)CC2)C1	–	RNA-seq, measured: PHF13	human, whole blood	dose not given, 24 h	relative to: pretreatment baseline	log2 fold change	1.13
